Results gathered from unrelated publications.
Numbered parts are unrelated; each lists some results of a single study.
Chain of UniProt Q5XXA6 (whole entry, unmodified, looked up): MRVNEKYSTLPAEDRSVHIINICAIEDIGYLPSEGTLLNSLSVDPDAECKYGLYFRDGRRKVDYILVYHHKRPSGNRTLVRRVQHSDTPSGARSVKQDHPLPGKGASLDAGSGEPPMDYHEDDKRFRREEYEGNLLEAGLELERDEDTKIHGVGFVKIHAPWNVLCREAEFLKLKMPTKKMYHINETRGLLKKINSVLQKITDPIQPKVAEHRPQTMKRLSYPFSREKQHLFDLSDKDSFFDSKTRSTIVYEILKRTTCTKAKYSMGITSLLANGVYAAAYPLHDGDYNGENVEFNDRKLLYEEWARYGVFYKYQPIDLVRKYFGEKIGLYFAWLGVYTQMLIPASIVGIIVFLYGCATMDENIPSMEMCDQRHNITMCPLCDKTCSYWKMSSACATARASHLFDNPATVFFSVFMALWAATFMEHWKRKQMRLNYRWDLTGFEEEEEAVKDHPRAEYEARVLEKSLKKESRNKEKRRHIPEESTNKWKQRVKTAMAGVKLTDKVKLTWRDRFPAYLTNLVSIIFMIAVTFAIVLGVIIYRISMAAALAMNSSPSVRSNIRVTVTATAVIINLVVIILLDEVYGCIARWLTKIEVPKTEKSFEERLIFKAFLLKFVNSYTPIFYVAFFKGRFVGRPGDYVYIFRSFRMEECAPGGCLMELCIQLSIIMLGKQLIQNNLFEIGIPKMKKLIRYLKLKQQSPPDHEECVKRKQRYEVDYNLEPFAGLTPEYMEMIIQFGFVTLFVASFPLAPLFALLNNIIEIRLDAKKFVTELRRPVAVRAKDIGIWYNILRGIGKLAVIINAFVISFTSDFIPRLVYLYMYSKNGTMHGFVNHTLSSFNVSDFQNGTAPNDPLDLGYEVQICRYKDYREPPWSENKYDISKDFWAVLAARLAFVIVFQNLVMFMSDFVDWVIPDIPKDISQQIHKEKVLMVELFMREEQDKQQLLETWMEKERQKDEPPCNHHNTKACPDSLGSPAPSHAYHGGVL
Chain of UniProt Q8TF76 (whole entry, looked up): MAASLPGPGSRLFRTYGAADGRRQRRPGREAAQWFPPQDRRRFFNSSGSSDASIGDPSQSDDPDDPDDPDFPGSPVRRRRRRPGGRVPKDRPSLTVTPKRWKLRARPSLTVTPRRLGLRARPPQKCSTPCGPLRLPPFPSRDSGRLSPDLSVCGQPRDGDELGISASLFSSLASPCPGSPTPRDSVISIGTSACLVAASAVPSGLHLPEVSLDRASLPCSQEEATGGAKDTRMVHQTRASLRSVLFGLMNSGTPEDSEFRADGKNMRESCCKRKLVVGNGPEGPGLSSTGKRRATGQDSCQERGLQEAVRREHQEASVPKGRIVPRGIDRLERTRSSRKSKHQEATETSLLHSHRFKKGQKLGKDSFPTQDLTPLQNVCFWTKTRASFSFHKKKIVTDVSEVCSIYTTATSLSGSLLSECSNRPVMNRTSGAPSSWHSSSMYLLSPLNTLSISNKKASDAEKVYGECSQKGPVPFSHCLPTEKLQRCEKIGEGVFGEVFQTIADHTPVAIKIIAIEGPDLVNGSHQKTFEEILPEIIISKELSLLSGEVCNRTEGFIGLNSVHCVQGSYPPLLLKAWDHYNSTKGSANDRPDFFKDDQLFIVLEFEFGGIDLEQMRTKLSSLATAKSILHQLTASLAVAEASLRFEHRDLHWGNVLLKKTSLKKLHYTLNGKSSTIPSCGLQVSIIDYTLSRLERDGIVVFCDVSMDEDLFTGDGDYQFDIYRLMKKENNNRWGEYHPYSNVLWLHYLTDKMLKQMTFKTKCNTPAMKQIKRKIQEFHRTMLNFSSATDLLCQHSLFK

Series 1 — organism: Sarcocystis neurona; read-out: parasite growth; tested at: 10 µM
The inhibition of `CC(C)(C)C(O)/C=C/c1ccc2c(c1)OCO2` (stereo not drawn) is reported as -34.9%.
For `CCCC(CCC)C(=O)O`, the inhibition was -19.5%.
With `CC1(C)C[C@@H]1C(=O)N/C(=C\CCCCSC[C@H](N)C(=O)O)C(=O)[O-].[Na+]` the inhibition was -28.9%.
With `CC(C(=O)O)c1cccc(C(=O)c2ccccc2)c1` (stereo not drawn) the inhibition was -27.9%.
With `NNC(=O)c1ccncc1` the inhibition was -26.6%.

Series 2 — SMILES: C=CCc1ccc(O)c(-c2cc(CC=C)ccc2O)c1; read-out: chloride current; technique: whole-cell voltage clamp
Anoctamin-1 (ANO1, Homo sapiens, UniProt Q5XXA6, del476-501/E650A); membrane voltage 60 mV — IC50: 15 µM.
The IC50 was 237 µM (Anoctamin-1 (ANO1, Homo sapiens, UniProt Q5XXA6, del476-501/K629R); inhibitor; 80 mV holding voltage).
For Anoctamin-1 (ANO1, Homo sapiens, UniProt Q5XXA6, del476-501/F627A); membrane voltage -20 mV: IC50 read 19.2 µM.
Anoctamin-1 (ANO1, Homo sapiens, UniProt Q5XXA6, del476-501); membrane voltage -80 mV, with: 300 nM Ca2+ — IC50: 25.2 µM.
It gave 34.9 µM for IC50 (Anoctamin-1 (ANO1, Homo sapiens, UniProt Q5XXA6, del476-501/L548A); membrane voltage 80 mV).

Mixed results
`CCc1[nH]c(-c2ccc(OC)cc2)nc1-c1ccncc1` has an IC50 of 0.731 µM (HASPIN (Homo sapiens, UniProt Q8TF76); enzyme activity, inhibitor, radiometric).
Under “log2 fold change”, `CN1CC[C@H](c2c(O)cc(O)c3c(=O)cc(-c4ccccc4Cl)oc23)[C@H](O)C1` is recorded as 0.886 (HuT78; RNA-seq, item: CCDC191; concentration not given; relative to: untreated control).
